Published values from different studies.
A part holds a random share of what one study measured.

Study 1
Target: Histone acetyltransferase KAT6A, winged helix 1, GST fusion (KAT6A, Homo sapiens, UniProt Q92794, residues 1-85)
Method: protein binding microarray
Form: double-stranded DNA, one strand shown
Matrix: in vitro
Tested at: not given
Notes: 8-mer, flanks averaged, mean of 2 arrays, mostly near background
Relative to: not given
Reading: higher = stronger binding
Endpoint: E-score
Target sequence (chain): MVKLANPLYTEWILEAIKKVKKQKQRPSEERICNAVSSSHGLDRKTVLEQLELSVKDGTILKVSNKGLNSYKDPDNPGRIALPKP
Oligonucleotide = GTCCAGTA; value = -0.149
Oligonucleotide = ATGCGAAG; value = 0.0161
Oligonucleotide = CCACCCAC; value = -0.142
Oligonucleotide = AAACGGAG; value = 0.136
Oligonucleotide = GGTAGCGA; value = 0.101
Oligonucleotide = AGTTTAGA; value = -0.179

Study 2
Target: Interferon regulatory factor 7, full length, phosphomimetic (IRF7, Homo sapiens, UniProt Q92985, residues 1-503, S471D/S472D/S475D/S476D/S477D/S483D/S484D/S487D)
Method: protein-binding microarray
Form: double-stranded DNA, one strand shown
Matrix: in vitro
Tested at: 2200 nM top
Notes: 60-bp whole probe
With: salmon DNA 0.4 mg/ml
Relative to: random background probes
Reading: higher = stronger binding
Endpoint: fitted relative affinity
Residues (chain): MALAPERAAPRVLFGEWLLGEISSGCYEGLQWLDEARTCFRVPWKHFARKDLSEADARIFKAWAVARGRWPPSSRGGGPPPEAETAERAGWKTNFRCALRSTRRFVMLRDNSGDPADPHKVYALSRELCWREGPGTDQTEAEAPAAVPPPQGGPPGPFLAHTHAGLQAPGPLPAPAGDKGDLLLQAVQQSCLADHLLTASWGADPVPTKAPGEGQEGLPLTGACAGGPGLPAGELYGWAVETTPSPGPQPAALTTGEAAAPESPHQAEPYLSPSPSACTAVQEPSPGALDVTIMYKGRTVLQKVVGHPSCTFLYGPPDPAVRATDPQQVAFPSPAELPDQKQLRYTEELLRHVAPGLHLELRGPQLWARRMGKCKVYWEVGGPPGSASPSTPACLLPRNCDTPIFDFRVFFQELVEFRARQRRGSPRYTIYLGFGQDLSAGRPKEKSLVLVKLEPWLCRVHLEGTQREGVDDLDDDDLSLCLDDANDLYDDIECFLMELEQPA
Oligonucleotide = GCCTAGCACTTAGATCTCAGACTGCATTAGTGCTAGGTCTTGATTCGCTTGACGCTGCTG; value = -0.156 z-score
Oligonucleotide = GCCTAGCACCTTTTTTTTTTTTTCTGATCGTGCTAGGTCTTGATTCGCTTGACGCTGCTG; value = 3.06 z-score
Oligonucleotide = GCCTAGCACCAACCTTTGTTTTTTTCTATGTGCTAGGTCTTGATTCGCTTGACGCTGCTG; value = 1.57 z-score
Oligonucleotide = GCCTAGCACTCATTTCTCCCAAGTCTTACTGTGCTAGTCTTGATTCGCTTGACGCTGCTG; value = 2.24 z-score

Study 3
Target: Centromere-binding protein 1, full length, His-tagged (CBF1, Saccharomyces cerevisiae, UniProt P17106, residues 1-351)
Sequence of UniProt P17106 (whole entry, looked up): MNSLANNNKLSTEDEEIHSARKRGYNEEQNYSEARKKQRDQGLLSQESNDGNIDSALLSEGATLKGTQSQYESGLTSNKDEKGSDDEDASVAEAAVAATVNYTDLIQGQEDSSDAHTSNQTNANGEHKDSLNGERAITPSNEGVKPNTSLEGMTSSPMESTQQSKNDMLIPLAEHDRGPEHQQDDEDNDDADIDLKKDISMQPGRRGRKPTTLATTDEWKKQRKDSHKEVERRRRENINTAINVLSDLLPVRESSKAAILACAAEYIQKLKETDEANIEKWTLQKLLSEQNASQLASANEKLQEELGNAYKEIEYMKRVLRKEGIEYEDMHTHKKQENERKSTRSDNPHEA
Method: competition protein-binding microarray
Form: double-stranded DNA, one strand shown
Matrix: in vitro
Tested at: 2 µM
Notes: whole 60-bp probe, lowest competitor level
With: Pho4 competitor, 0.05 µM
Reading: higher = stronger binding
Endpoint: fluorescence intensity
Oligonucleotide = TGATGAGGACACCAACACGTGCAAACATGGTAGTGCGTCTTGATTCGCTTGACGCTGCTG; value = 1340 a.u.
Oligonucleotide = GTATCCATATCTTTTTGAGAGCATTGAAAGTATACGGTCTTGATTCGCTTGACGCTGCTG; value = 80.9 a.u.
Oligonucleotide = ACCTGAAATCCTTTTACAAACCATATTTAGATGTGCGTCTTGATTCGCTTGACGCTGCTG; value = 91.2 a.u.
Oligonucleotide = TACGACATTGGCAATCACGTGTTGGGCTGCTCCTCCGTCTTGATTCGCTTGACGCTGCTG; value = 6000 a.u.

Further values, each from its own experiment
Molecule = PhoQ, residues 284 288 289 292 302 303 SVTLVV; target = PhoP, residues 12 14 15 18 19 IFFTR (Escherichia coli, UniProt P23836); assay = Sort-seq, item: YFP reporter; test system = E. coli; setting = PhoQ-PhoP variant library, with: 10 µM Mg2+; how to read = relative to: high Mg2+ state, higher = stronger signaling; endpoint = fold induction; value = 3.39

For quick reference, copied from above (study 3):
Oligonucleotide = ACCTGAAATCCTTTTACAAACCATATTTAGATGTGCGTCTTGATTCGCTTGACGCTGCTG; value = 91.2 a.u.
